Assay results from different studies.
Protocols differ between the studies behind these lines. ± marks the error that the study gave.

`Cc1cc(Nc2ncc(Cl)c(Nc3ccccc3S(=O)(=O)C(C)C)n2)c(OC(C)C)cc1C1CCNCC1`: “log2 fold change” -4.52 (CLB-GE; phosphoproteomics LC-MS/MS, measured: CCDC88C phosphorylation; 200 nM, 60 min; relative to: untreated).
For `Cc1c(C)c2c(c(C)c1O)CCC(C)(COc1ccc(CC3SC(=O)NC3=O)cc1)O2` (stereo not drawn), “point of departure” read 0.204 µM (HepG2; extracellular flux, measured: oxygen consumption rate; 6 h, representative mode).
`CC(=O)Nc1cc(Oc2ccc3c(nc(Nc4ccc(F)cc4F)n3C)c2C)ccn1`: phosphorylation “inhibited” (MUTZ5 cells; Western blot, measured: JAK2, STAT5, STAT3; concentration not given).
With `O=C(/C=C/C=C/C=C/C1CCCCC1)NC1=C[C@@](O)(/C=C/C=C/C=C/C(=O)NC2=C(O)CCC2=O)[C@@H]2O[C@@H]2C1=O` the GI50 was 3.54 µM (NCI-H1568; cell growth, CellTiter-Glo; 78 h).
The fold change of `C=CC1=C(C)c2cc3[n-]c(cc4nc(cc5[n-]c(cc1n2)c(C)c5C=C)C(C)=C4CCC(=O)O)c(CCC(=O)O)c3C.[Zn+2]` is reported as 2.14 (SH-SY5Y; RNA-seq, measured: SERPINE1 mRNA; 5 µM, 5 h; relative to: untreated cells).
Under “relative colony forming efficiency”, `Cc1cnc2ccc3c(c2n1)N1CCC(O)N=C1N3C` (stereo not drawn) is recorded as 91 ± 4% (BALB/c 3T3; 1 µM; relative to: solvent control).
With `COc1cnc2cccc(N3CCc4c(cc(Cn5ccnc5C)cc4-c4cn(C)nc4C(F)(F)F)C3=O)c2c1` the EC50 was over 30 µM (NCI-H322; cell growth, inhibitor; 120 h).
`Cc1ccc(C)c(Cn2cc(CCNc3ncnc4c3ncn4[C@@H]3O[C@H](C(=O)NC4CC4)[C@@H](O)[C@H]3O)c3cc(C)ccc32)c1` has an EC50 of 1.58 µM (HEK293T ATF4-FLuc reporter; ATF4 reporter gene, activator, luciferase reporter).
For `CCn1cc(-c2cc(Cn3ccoc3=N)cc3c2CCN([C@@H](C)c2cc(OC)ccn2)C3=O)c(C(F)(F)F)n1`, the EC50 was 8.41 µM (SUM-159-PT; cell growth, inhibitor; 120 h).
The EC50 of `O=C(/C=C/c1cccc(S(=O)(=O)Nc2ccccc2)c1)NO` is reported as 0.882 µM (HEK293T ATF4-FLuc reporter; ATF4 reporter gene, activator, luciferase reporter).
`COC(=O)N[C@H](C(=O)N1CC2(CC2)C[C@H]1c1nc(-c2ccc3c(c2)C(F)(F)c2cc(-c4ccc5[nH]c([C@@H]6[C@H]7CC[C@H](C7)N6C(=O)[C@@H](NC(=O)OC)C(C)C)nc5c4)ccc2-3)c[nH]1)C(C)C` gave an inhibition of 5% (THP-1; pyroptotic LDH release; 2 µM, 40 min, with: LPS then nigericin).
`NC(=O)N1c2ccccc2C=Cc2ccccc21` gave an EC50 of 10.2 µM (human iPSC-derived cardiac fibroblasts, reporter lines; profibrotic reporter inhibition; 72 h, 7 doses up to 20 µM, with: 5 ng/mL TGF-β1).
`CCCCCN(CCC12CC3CC(CC(C3)C1)C2)C(=O)NCCCc1ccncc1` has an EC50 of over 9.96 µM (HEK293T ATF4-FLuc reporter; ATF4 reporter gene, activator, luciferase reporter).
For `O=C(O)c1cc(O)c(O)c(O)c1`, the kynurenine level was 156 ± 19 % change (Caco-2/THP-1 co-culture; 0.1 µg/mL, with: LPS 100 ng/mL).
`Cn1cc(Nc2nccc(-c3ccc4c(c3)CN(C3COC3)CC[C@H]4NC(=O)c3cn(C(C)(C)C)nn3)n2)cn1`: “pathway activation z-score” 1.39 (mouse splenic B cells; measured: VEGF signalling; 30 mg/kg, IgD-activated in vivo; relative to: vehicle, direction not given).
With `Nc1cccc2c1CN(C1CCC(=O)NC1=O)C2=O` (stereo not drawn) the viability was 70% (bone marrow CD138+ myeloma cells; XTT; 1.2 µM, mean of three patients).
The kynurenine level of `COc1cc(-c2oc3cc(O)cc(O)c3c(=O)c2O)ccc1O` is reported as 98.3 ± 1.1 % change (Caco-2/THP-1 co-culture; concentration not given, with: LPS 250 ng/mL).
With `CCn1cc(-c2cc(Cn3ccnc3)cc3c2CCN([C@H](c2cc(OC)ccn2)C2CC2)C3=O)c(C(F)(F)F)n1` the EC50 was 21 µM (SNU-423; cell growth, inhibitor; 120 h).
`C[C@H](NCc1ccc(OCc2cccc(F)c2)cc1)C(N)=O` gave an inhibition of -29.2% (THP-1; pyroptotic LDH release; 2 µM, 40 min, with: LPS then nigericin).
The EC50 of `Cc1cc(C#N)cc(C)c1Oc1nc(Nc2ccc(C#N)cc2)nc2[nH]ccc12` is reported as over 9.96 µM (HEK293T ATF4-FLuc reporter; ATF4 reporter gene, activator, luciferase reporter).
`CCN(CC)CCS(=O)(=O)[C@@H]1CCN2C(=O)c3coc(n3)CC(=O)C[C@H](O)/C=C(C)/C=C/CNC(=O)/C=C/[C@@H](C)[C@@H](C(C)C)OC(=O)[C@@H]12` gave an inhibition of -43.3% (THP-1; pyroptotic LDH release; 2 µM, 40 min, with: LPS then nigericin).
With `CC(C)NCC(O)c1ccc(O)c(O)c1` (stereo not drawn) the sarcomere length was 1.61 µm (mouse ventricular cardiomyocytes; dose not given, 0.128 s).
`c1ccc2[nH]ccc2c1`: “mRNA level, LS mean” 33.1 counts per million (HCT-8; RNA-seq, measured: KLHL24; concentration not given).
`CCCCN1CCN(c2ccc3nc(-c4ccc5nc(-c6cc(OC)ccc6OC)[nH]c5c4)[nH]c3c2)CC1` gave a growth percent of 97.5% (OVCAR-8; SRB; 10 µM, 48 h).
The fold change of `C=Cc1c2[n-]c(c1C)/C=c1\[n-]/c(c(C)c1C=C)=C\c1[n-]c(c(CCC(=O)O)c1C)/C=c1\[n-]c(c(C)c1CCC(=O)O)=C2.[Sn+4]` is reported as 2.42 (SH-SY5Y; RNA-seq, measured: ITGA6 mRNA; 5 µM, 5 h; relative to: untreated cells).
With `O=C1CN(/N=C/C=C/c2ccc([N+](=O)[O-])o2)C(=O)N1` the inhibition was 1.08% (THP-1; pyroptotic LDH release; 2 µM, 40 min, with: LPS then nigericin).
`COc1ccc(NC(=S)N/N=C/c2cccc3cc4ccccc4nc23)cc1`: “G1 phase cells” 57.3 ± 1.2% (HeLa; PI flow cytometry; IC12.5, 48 h, with: N-acetylcysteine).
`CC(C)=CCC/C(C)=C/CC/C(C)=C/CSc1ccccc1C(=O)O` has an inhibition of 72% (THP-1; pyroptotic LDH release; 2 µM, 40 min, with: LPS then nigericin).
For `CCCCCCCCCc1ccc(OCCOCCOCCOCCOCCOCCOCCOCCOCCO)cc1`, “MyBP-C level change” read 11.9 SD (human iPSC cardiomyocytes; plate-normalised; concentration not given, hit retest; relative to: vehicle controls, SDs below control).
The inhibition of `CC(C)c1ccc(C(=O)NC(=N)N)cc1S(C)(=O)=O` is reported as -28.8% (THP-1; pyroptotic LDH release; 2 µM, 40 min, with: LPS then nigericin).
With `O=C(Nc1nnc2[nH]c(=S)[nH]c(-c3ccc(Cl)cc3)c1-2)c1ccccc1` the cell growth was 92.8% (SF-268; SRB; 10 µM, NCI60 single-dose screen; relative to: untreated).
For `CCCCOc1ccc(C(=O)CCN2CCCCC2)cc1`, the inhibition was -9.83% (THP-1; pyroptotic LDH release; 2 µM, 40 min, with: LPS then nigericin).
For `Cn1cc(-c2ccc(-c3cncc(Cl)c3N3CCC4(CCNC4=O)CC3)cc2)cn1`, “fold change in expression” read -1.29 (COLO 205; microarray, measured: FABP5; concentration not given, 6 h, gene set E-FABP; relative to: untreated cells).

Repeated from above:
For `CCCCOc1ccc(C(=O)CCN2CCCCC2)cc1`, the inhibition was -9.83% (THP-1; pyroptotic LDH release; 2 µM, 40 min, with: LPS then nigericin).
`COc1ccc(NC(=S)N/N=C/c2cccc3cc4ccccc4nc23)cc1`: “G1 phase cells” 57.3 ± 1.2% (HeLa; PI flow cytometry; IC12.5, 48 h, with: N-acetylcysteine).
With `O=C1CN(/N=C/C=C/c2ccc([N+](=O)[O-])o2)C(=O)N1` the inhibition was 1.08% (THP-1; pyroptotic LDH release; 2 µM, 40 min, with: LPS then nigericin).
